Results from different studies.
“And” joins repeats or separate records; there may be more than shown. ± gives the spread as reported. Converted amounts (≈) assume the structure as drawn.

Under “elimination rate constant”, `O=C(c1cccnc1-c1ccncc1)N1CCC(O)(Cc2ccccc2)CC1` is recorded as 5.28e-05 s⁻¹ (healthy Japanese adults, plasma; oral, 1200 mg single dose).
Under “relative peak deviation”, `C[C@H](CCC(=O)NCCS(=O)(=O)O)[C@H]1CC[C@H]2[C@@H]3[C@H](O)C[C@@H]4C[C@H](O)CC[C@]4(C)[C@H]3C[C@H](O)[C@]12C` is recorded as 102 ± 11% (human, plasma; endogenous baseline diurnal; baseline: daily mean concentration).
For `COc1cc(Nc2ncc3c(n2)-c2ccc(Cl)cc2C(c2c(F)cccc2OC)=NC3)ccc1C(=O)O`, “patients with adverse event” read 46% (refers to: Hyponatremia, all grades; cancer patients, phase 1/2; oral, dose not given, together with: pembrolizumab).
`CC(C)n1c(Nc2cccnc2)nc2cnc(Nc3ccc(N4CCN(C)CC4)cc3)nc21`: “adverse event incidence” 7.1% (refers to: Headache; healthy male subjects; oral, 100 mg, together with: itraconazole).
With `O=[N+]([O-])c1cn2c(n1)OC[C@@H](OCc1ccc(N3CCOCC3)c(F)c1)C2` the aqueous solubility was 10.1 µg/mL (≈ 26.7 µM) (aqueous buffer; pH 7.4).
The relative AUCinf of `CCCCCCCCCCCCCCCC(=O)N[C@@H](CCC(=O)NCCCC[C@@H]1NC(=O)[C@H]([C@@H](C)CC)NC(=O)[C@@H](NC(=O)[C@@H]2CCCN2C(=O)[C@H](Cc2ccccc2)NC(=O)[C@H](Cc2c[nH]cn2)NC(=O)[C@@H](NC(=O)[C@H](CC(=O)O)NC(=O)CC(C)C)[C@@H](C)O)CSSC[C@@H](C(=O)N[C@@H](CCCCN)C(N)=O)NC(=O)CNC(=O)[C@H](CCCCN)NC(=O)[C@H](CO)NC(=O)[C@H](CCCNC(=N)N)NC(=O)[C@@H]2CCCN2C(=O)[C@H](CCC(=O)O)NC(=O)[C@H](Cc2ccccc2)NC1=O)C(=O)O` is reported as roughly 1.5 fold (healthy human; subcutaneous, 20 mg; baseline: lyophilized over aqueous formulation).
`CCN1CCN(Cc2ccc(NC(=O)c3ccc(C)c(NC(=O)c4cncc(-c5cccs5)c4)c3)cc2C(F)(F)F)CC1`: “mean plasma concentration” 203 ng/mL (LC-MS/MS; C57BL/6 mouse, plasma; intraperitoneal, 20 mg/kg single dose, 4 h).
For `COc1cc(Cl)c(C(=O)N[C@@H](CN[C@H]2CC[C@@H](N)CC2)Cc2ccc(C#N)cc2)cc1-c1ccc(CN[C@H](C)c2ccc(C)cc2)o1`, the blood clearance was 21.7 mL/min/kg (rat hepatocytes; 1 µM, 5% FCS).
The unbound AUC(0-inf) of `CCO[C@H]1CCN(Cc2c(OC)cc(C)c3[nH]ccc23)[C@H](c2ccc(C(=O)O)cc2)C1` is reported as 13700 ng·h/mL (severe hepatic impairment patients; oral, 200 mg, geometric mean).
`O=C(O)CCC(=O)O.[2H]C([2H])([2H])Oc1cc(C)c2[nH]ccc2c1CN1CC[C@@H](C2CC2)C[C@H]1c1ccc(C(=O)O)cc1`: “subjects with allergic dermatitis TEAE” 0% (multiple ascending dose; healthy Chinese subjects; 100 mg twice daily).
`CSc1ccccc1C(=O)NCCn1cc(C(=O)NCc2cccc(C)n2)c(=O)c2cc3c(cc21)OC(F)(F)O3` gave a half-life of 0.89 ± 0.5 h (Sprague-Dawley rat, male, plasma; intravenous, 5 mg/kg of parent drug).
`Cc1ccc(Sc2ccccc2N2CCNCC2)c(C)c1`: “blood in urine” 0% (healthy adult men; oral, 10 mg single, 10 day).
Under “serum PLT change”, `CCc1cc(C(=O)NC)c2nccc(N3CCc4c(cc(Cn5ccnc5)cc4-c4cn(C)nc4C(F)(F)F)C3=O)c2c1` is recorded as 18.7% (Sprague Dawley rats; oral, 100 mg/kg twice daily, 7 days; baseline: vehicle).
The feeling hot of `CCO` is reported as 11.1% (human; concentration not given, treatment-emergent adverse event).
`N#C[C@@]1(c2ccc3c(N)ncnn23)O[C@H](CO)[C@@H](O)[C@H]1O`: “unbound fraction in plasma” 0.0589 (rat plasma; 1-100 µM).
`C=CC(=O)NC1CCN(c2ncc3ncnc(Nc4ccc(Oc5ccc6c(c5)ncn6C)c(C)c4)c3n2)CC1` has a blood-to-plasma ratio of 3.31 (refers to: total radioactivity; healthy male human, whole blood and plasma; oral, 60 mg, 168 h, geometric mean).
`COc1cccc(OC)c1-c1cc(C(=O)NC2(C(=O)O)C3CC4CC(C3)CC2C4)nn1-c1ccc(C(=O)N(C)CCCN(C)CCCN(C)C(=O)CN2CCN(CC(=O)[O-])CCN(CC(=O)[O-])CCN(CC(=O)[O-])CC2)cc1C(C)C.[177Lu+3]` (stereo not drawn) has a tumour-to-spleen ratio of 5.23 (mouse HT-29 xenograft; 168 h, biodistribution; baseline: tumour over spleen).
The dose-normalized Cmax of `O=C(Nc1cnccc1Cl)N1CCN(Cc2ccc3c(c2)OC(F)(F)O3)CC1` is reported as 90 ng/mL (young men, plasma; oral, 25 mg once daily, day 10, normalized to 10 mg).
`CN1CCN(c2cccc3c2CCN(C(=O)/C=C/c2c(-n4cnnn4)ccc(Cl)c2F)[C@@H]3C(=O)Nc2ccc(C(=O)O)cc2)C(=O)C1`: “subjects with serious adverse event” 0% (healthy human subjects; intravenous infusion, 1 mg/h, 5 days).
For `COc1ncc(-c2nc3c(n2C(C)C)[C@H](c2ccc(Cl)cc2)N(c2cc(Cl)cn(C)c2=O)C3=O)c(OC)n1`, “geometric mean Cmax” read 1500 ng/mL (human patients, plasma; oral, 150 mg).
Under “participants with TEAE rhinorrhoea”, `O=C1CC[C@H](N2Cc3cc(N4CCN(CC5CCN(c6ccc([C@@H]7c8ccc(O)cc8CC[C@@H]7c7ccccc7)cc6)CC5)CC4)ccc3C2=O)C(=O)N1` is recorded as 4.2% (human; oral, 200 mg, together with: dabigatran etexilate 75 mg).
The urinary excretion of `COCC(=O)N1CCC[C@H](C(=O)NCc2nc(-c3ccc(C#N)cc3)cs2)C1` is reported as 0.52% (Sprague-Dawley rat, male, urine; intravenous, 1 mg/kg, 24 h; baseline: dose).
The Cmax of `CCOc1c([C@H](C)n2nc(C)c3c(N)ncnc32)cc(Cl)c(F)c1[C@@H]1CNC(=O)C1` is reported as 808 ± 316 nM (patients, monotherapy; oral, 15 mg once daily, cycle 1 day 1).
`COc1ccc2c(c1)CN(C(=O)CCN1CCC(Cc3ccccc3)CC1)CC[S@@+]2[O-]` has a blood concentration of 7590 ± 1410 ng/mL (beagle dog, male; intravenous, 8 mg/kg, 14-day toxicity study).
Under “urinary magnesium excretion change”, `Cc1ccc([C@@H]2O[C@H](CO)[C@@H](O)[C@H](O)[C@H]2O)cc1Cc1ccc(-c2ccc(F)cc2)s1` is recorded as -11.8 mg (Japanese type 2 diabetes patients; 200 mg, day 4, 24 h urine collection; baseline: baseline).
`CC(C)[C@H](C(=O)Nc1ccc(C(=O)NO)cc1)c1ccccc1` has a measured concentration of 10.9 ng/mL (whole blood; 10.0 ng/mL, 5 h, 4 °C, stability on ice).
For `CNCc1ccc(-c2[nH]c3cc(F)cc4c3c2CCNC4=O)cc1`, “AST/ALT increased incidence” read 33.3% (human patients; oral, 480 mg twice daily, all grades).
`CC(C)Oc1c(NC(=O)c2ccc(NC(=O)[C@H](CC(N)=O)NC(=O)c3ccc(/N=N/c4ccccc4)cc3)cc2)ccc(C(=O)N/N=C/c2ccc(C(=O)O)s2)c1O` has a thermal half-life of 6 h (absorbance; DMSO; 40 °C, PSS to ground state relaxation).
For `COc1cccc(-c2n[nH]c(SCc3ccccn3)n2)c1OC`, the plasma concentration was 483 ng/mL (Sprague-Dawley rats, both sexes; oral dietary, 10 mg/kg/day, day 90, 3 h).
For `C[C@H](CCC(=O)O)[C@H]1CC[C@H]2[C@@H]3[C@H](O)C[C@@H]4C[C@H](O)CC[C@]4(C)[C@H]3C[C@H](O)[C@]12C`, “relative peak deviation” read 91.1 ± 21.6% (human, plasma; endogenous control diurnal; baseline: daily mean concentration).
For `CCn1ncc2c1-c1cnc(N)c(c1)O[C@H](C)c1cc(F)ccc1-c1nn(C)nc1C2`, “unbound plasma concentration” read 2000 ± 260 nM (female athymic nude mice, sample B PDX; oral, 15 mg/kg twice daily for 5.5 days, 1 h).
Under “patients with adverse event”, `CNC(=O)c1ccc(-c2cnc3ncc(Cc4ccc5ncccc5c4)n3n2)cc1F` is recorded as 11% (refers to: Dyspnea, all grades; cancer patients; oral, 600 mg twice daily, expansion cohort, any causality).
The tissue concentration of `CN(C(=O)n1cnc(-c2ccc[n+]([O-])c2)c1)[C@H]1CC[C@H](O)CC1` is reported as 8.7 ± 0.9 ng/g (rat, cerebellum; oral, 10 mg/kg daily for 5 days, 4 h).
`Cc1cc(OCC(=O)OCCN)cc(C)c1Cc1ccc(O)c(C(C)C)c1.Cl` — result for sobetirome level: “increased” (LC-MS/MS, refers to: liberated sobetirome; mouse, brain; intraperitoneal, 1.5 µmol/kg, 30 min; baseline: equimolar sobetirome injection).
For `CCO[C@H]1CCN(Cc2c(OC)cc(C)c3[nH]ccc23)[C@H](c2ccc(C(=O)O)cc2)C1`, “incidence of cough” read 0% (PNH patients, active haemolysis; oral, 200 mg, 8 weeks, treatment).
`O=C(O)CSc1nnc(Br)n1-c1ccc(C2CC2)c2ccccc12` has a body weight of 32.2 g and 36 g and 37.8 g and 37.3 g and 34.5 g and 42.1 g (KM mouse, chronic hyperuricaemia model; dose not given, day 24).
`CCN1/C(=C/C(C)=O)Sc2ccc(F)cc21`: “systolic blood pressure” 123 ± 8 mmHg (cynomolgus monkey; oral, 10 mg/kg, 6 h post-dose).
`Cc1nc2ccc(OCc3ccc(C(F)(F)F)cc3)cc2[nH]1` gave an oral bioavailability of 34.8% (Balb/c mice male; oral, 10 mg/kg; baseline: intravenous 1 mg/kg).
For `CC(C)(C(=O)N1CCOc2c(C#N)cncc2C1)C(F)F`, “subjects with adverse event” read 83.3% (refers to: nervous system disorders; human; oral, 40 mg, CSF pharmacokinetic cohort).
